Measurements collected from several papers.
A part holds a random share of what one study measured. Substitutions count along the parent as printed.

Block 1 — technique: DHFR PCA, deep sequencing; medium: yeast; with: (+)-ABA 0.0091 µM; reference: wild-type fitted maximum; reading: higher = stronger binding
Target: ABI1, truncated, D143A, DHFR fusion (Arabidopsis thaliana)
Setting: methotrexate growth selection, single substitutions
Starting sequence: PYL1, truncated, DHFR fusion (Arabidopsis thaliana); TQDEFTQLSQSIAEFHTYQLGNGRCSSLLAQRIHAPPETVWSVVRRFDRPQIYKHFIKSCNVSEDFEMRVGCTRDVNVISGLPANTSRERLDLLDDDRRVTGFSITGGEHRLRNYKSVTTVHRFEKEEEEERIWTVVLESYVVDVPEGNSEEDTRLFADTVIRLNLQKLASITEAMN
Change	relative binding score [%]
D95Y	-10.4
E4T	12.4
G102K	-1.7
V137M	0.0313
E125A	46.2
T173P	-1.47
R46S	1.24
C72T	3.47
I79R	-1.37
F47K	0.289
F124W	33.2
Y141L	-2.2
Q31F	1.19
S117Q	-4.59
V44Q	-4.03
G21H	15.8
E152C	4.14
R90D	-5.68
H110W	98.8
S150A	22.5
V145T	-1.23
V142P	-2.23
T160N	-0.53
R155H	-3.31
R69Y	0.772

Block 2 — technique: RNA Bind-n-Seq; form: RNA; medium: in vitro; concentration: 200 nM; setting: whole 134-nt RNA, ends assumed; with: 150 mM KCl; reference: input library; reading: higher = stronger binding
Target: Ras GTPase-activating protein-binding protein 1, full length (G3BP1, Homo sapiens, UniProt Q13283)
Sequence of UniProt Q13283 (whole entry, looked up): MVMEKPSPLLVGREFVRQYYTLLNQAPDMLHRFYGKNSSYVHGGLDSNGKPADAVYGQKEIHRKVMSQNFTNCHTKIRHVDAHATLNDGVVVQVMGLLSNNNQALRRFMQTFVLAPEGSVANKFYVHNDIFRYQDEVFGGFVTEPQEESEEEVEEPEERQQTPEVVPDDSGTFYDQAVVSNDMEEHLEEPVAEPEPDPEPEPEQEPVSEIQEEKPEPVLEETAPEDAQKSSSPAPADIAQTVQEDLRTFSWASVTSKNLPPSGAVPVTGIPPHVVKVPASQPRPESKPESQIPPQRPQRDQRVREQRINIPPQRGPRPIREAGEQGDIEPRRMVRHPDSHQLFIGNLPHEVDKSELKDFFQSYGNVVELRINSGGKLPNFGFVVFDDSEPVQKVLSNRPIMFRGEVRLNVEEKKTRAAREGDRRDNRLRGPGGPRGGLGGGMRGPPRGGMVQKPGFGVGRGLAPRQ
Sequence	log2 enrichment
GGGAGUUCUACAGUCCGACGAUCCUCAAGUCCUGUGCUACACAUCGUAUGUACCGAAUCGGGCCGGCCGGGCCGGGGAAAGUAUUAUGUUACGCCGUUCGGAUCUGCACUUCCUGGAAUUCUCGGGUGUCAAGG	-0.269
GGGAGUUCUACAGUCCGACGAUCUGCUAGGCAAUGGAUCACUUGGAGUCCUUUAUUGCUGAAUGUGAUCGGAGAACUGAGCUCGCCAAGAAGCGGCUGGCAGAAACACAGGAGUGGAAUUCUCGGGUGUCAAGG	0.508
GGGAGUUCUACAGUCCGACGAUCACCAUGCAGGUGGGCAUCUUUGGGAAGUUGGGCAAGGGGGGGAUAGGGAGGGGGGUAACACUUUGGGAACAGGUGGUCCCAGGUCGUUUCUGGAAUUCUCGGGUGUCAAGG	1.05
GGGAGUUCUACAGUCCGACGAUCCCUGUGCUACACAUCGUAUGUACCGAAUCGGGGUUUUUUGGGGUUUUUUGGGUUUUUUGGAAAGUAUUAUGUUACGCCGUUCGGAUCUGCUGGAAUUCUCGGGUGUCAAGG	-0.392
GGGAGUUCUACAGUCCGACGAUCCAAGUCCUGUGCUACACAUCGUAUGUACCGAAUCGGGGCCCGGGCCCGGCCCGGGAAAGUAUUAUGUUACGCCGUUCGGAUCUGCACUUCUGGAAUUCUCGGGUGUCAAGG	-0.789
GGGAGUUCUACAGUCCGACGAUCUUAAGGGAAUCUAUUGCUGAACACAAACCUCAUAUUGACAAACUACUAAAGAUAGGCCCACAACUAAAGGAAUUAAACCCUGAGGAAGGGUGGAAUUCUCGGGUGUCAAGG	-0.241
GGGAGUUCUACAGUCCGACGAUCCCUCAAGUCCUGUGCUACACAUCGUAUGUACCGAAUCGGGGCGGCGGGCGGGAAAGUAUUAUGUUACGCCGUUCGGAUCUGCACUUCCAGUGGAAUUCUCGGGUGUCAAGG	0.866
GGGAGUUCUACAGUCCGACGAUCAGUCCUGUGCUACACAUCGUAUGUACCGAAUCGGGGAAAGGGGUUUGGGGAAAGGGGAAAGUAUUAUGUUACGCCGUUCGGAUCUGCACUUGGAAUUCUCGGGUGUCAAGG	0.648
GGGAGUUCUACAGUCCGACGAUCUGGGAGGUGGAUUUUGUUUAUUUUUUUAGCUCAUUUCCAGGGGUGGGAAUUUUUUUUUAGUAUGUGUCAUGAAUAAAGUUGUUUUUGAAAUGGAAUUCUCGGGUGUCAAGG	0.448
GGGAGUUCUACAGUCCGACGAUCAGUCCUGUGCUACACAUCGUAUGUACCGAAUCAAACCCAAAUUUAAACCCCCCCAAAAAAGUAUUAUGUUACGCCGUUCGGAUCUGCACUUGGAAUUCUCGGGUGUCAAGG	-0.444
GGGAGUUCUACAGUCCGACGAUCUCCUGUGCUACACAUCGUAUGUACCGAAUCGGUUUUUUGGGUUUUUUGGGUUUUUUGGGAAAGUAUUAUGUUACGCCGUUCGGAUCUGCAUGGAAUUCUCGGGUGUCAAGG	-0.62
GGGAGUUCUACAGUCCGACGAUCCCUGUGCUACACAUCGUAUGUACCGAAUCGGGAAAAAAGGGGAAAAAAGGGGAAAAAAGGGAAAGUAUUAUGUUACGCCGUUCGGAUCUGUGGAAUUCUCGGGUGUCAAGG	-0.406
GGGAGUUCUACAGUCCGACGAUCCAAGUCCUGUGCUACACAUCGUAUGUACCGAAUCGGUUUUUGGAAAGGAAAAAGGAAAGUAUUAUGUUACGCCGUUCGGAUCUGCACUUCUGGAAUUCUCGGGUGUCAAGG	-0.832
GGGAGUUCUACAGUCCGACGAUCCACAGACAACACGCACCCACACAGACACAGAGGGAAGGGGUUGGGAUGGGGACAGAAAGCACAGCAGGGCGGGGUAGGACCCCAGCCCCUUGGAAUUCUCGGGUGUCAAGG	1.81

Block 3 — technique: protein-binding microarray; form: double-stranded DNA, one strand shown; medium: in vitro; concentration: 250 nM; setting: 60-bp whole probe; with: salmon DNA 0.4 mg/ml; reference: random background probes; reading: higher = stronger binding; shared flanks, not repeated: GCCTAGCAC … GTCTTGATTCGCTTGACGCTGCTG
Target: Interferon regulatory factor 5, full length, phosphomimetic (IRF5, Homo sapiens, UniProt Q13568-2, residues 1-514, K96S/S451D/S453D/S456D/S462D)
Sequence	log fluorescence
TCAACTCTGTGCTTTCCTACTGTGCTA	0.434 z-score
TACGATTTCAGTATCGAGACGTGCTAG	3.72 z-score
TTAGGTTTCGGGACGGGGTTAGTGCTA	6.06 z-score
TCACATTTCCTTTACATACTGTGCTAG	0.88 z-score
ATTAGTATGTTCACTATTTAAGTGCTA	0.607 z-score
TCACCTTTCTCTTGGAGACTGTGCTAG	0.846 z-score
GACAATTTCGGGTTTCGAGACGTGCTA	7.49 z-score
TCATTTTGCTTTCTTTTACTGTGCTAG	2.88 z-score
GACGGACTGGTTCTCGGGACGTGCTAG	-0.514 z-score
GACGAACTGATACTGGAGACGTGCTAG	0.267 z-score
TTAGGTATCGACTTACGGTTAGTGCTA	3.81 z-score
GACGAATCCAGTTTCGAGACGTGCTAG	5.8 z-score
TCAGTCCTCTCTCTATTACTGTGCTAG	0.249 z-score
TTAGATCTCAGTCTCGATTAGTGCTAG	0.911 z-score
GACGGACTGGTGTATCGGGACGTGCTA	-0.0858 z-score
GACGATTCCATTTTCGAGACGTGCTAG	2.34 z-score
TTAGGTATCGGGTTTCGCTTAGTGCTA	5.99 z-score
GTAGGTATCGGGACTGGGTTAGTGCTA	1.55 z-score
GACGATATCACTCTCGAGACGTGCTAG	1.55 z-score
GACGGACTTCTTCTCCTGACGTGCTAG	-0.218 z-score
TTAGATATCAGTCTCTATTAGTGCTAG	1.57 z-score
ATAGGTTTCCTTTTCCTTTAGTGCTAG	1.55 z-score
GATGGACTGGGGTATCGGGACGTGCTA	0.138 z-score
CCTGAAATCTCTTTCCTTACGTGCTAG	0.847 z-score
GACGAACTGAGGACTGGAGACGTGCTA	-0.581 z-score

Block 4 — target: CCNB3, cyclin fold, Cln2 fusion (human); technique: yeast growth competition, sequencing; medium: yeast; setting: weak parent motif; reference: not given; reading: higher = stronger binding
Starting sequence: DTL docking peptide (human); PSSMRKICTYFHR; partner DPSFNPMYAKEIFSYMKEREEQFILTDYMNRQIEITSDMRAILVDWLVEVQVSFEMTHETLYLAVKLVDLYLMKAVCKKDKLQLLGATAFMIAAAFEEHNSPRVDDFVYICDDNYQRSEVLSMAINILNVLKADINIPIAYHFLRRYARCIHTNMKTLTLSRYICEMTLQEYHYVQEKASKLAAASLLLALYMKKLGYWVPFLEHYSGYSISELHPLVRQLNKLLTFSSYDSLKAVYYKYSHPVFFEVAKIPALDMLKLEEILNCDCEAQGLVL
Change	normalised enrichment score
T9A	0.261
C8A	-0.133
S3A	0.531
I7A	-0.0136
R5A	0.412
Y10A	0.501
P1A	0.476

Block 5 — technique: RNA Bind-n-Seq; form: RNA; medium: in vitro; concentration: 365 nM; reference: no-protein control; reading: higher = stronger binding
Target: RNA binding protein fox-1 homolog 2, RRM domain, GST-SBP tag (RBFOX2, Homo sapiens, UniProt O43251-10, residues 100-194)
Setting: natural RNA segment, single round, ends assumed
Construct (chain): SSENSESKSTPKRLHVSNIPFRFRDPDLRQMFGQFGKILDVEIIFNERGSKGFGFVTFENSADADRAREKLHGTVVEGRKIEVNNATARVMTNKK
Sequence	RBNS enrichment (R)
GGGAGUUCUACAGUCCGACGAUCUCAUUUAUUUGCUUAAAUGGAAAGUGUGGGAGCCACUACCCUCUCUUUUGAUCUGCCAAGGAUUUCCUCUCAGAGCUGUUGCACAGACAGAGAUUGUACUUGGUAAGAUAUGGAAUUCUCGGGUGCCAA	0.254
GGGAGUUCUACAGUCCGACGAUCUGUGAAAUUCCCUCUUCACCUCCCCACCCCCCAAAAAAUAAAAGGGGGCAUAAACUUUAUUCCACUGGAGAAGCCCUGGGGGUGGCUGGAGCCAGCCUGCUGAGAAGCGUUGGAAUUCUCGGGUGCCAA	0.615
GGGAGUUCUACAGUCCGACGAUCUGAGGAAAUGGUUGUCUCCCUGUCCCCAGGCAGGCCUCUUCCCCUCCCUGUCCUGUAAAUAUCCCUCCCCUCUCCAGUCCACCCUCAUCUCCCACCAAGAUCAGCCACCUUGGAAUUCUCGGGUGCCAA	0.645
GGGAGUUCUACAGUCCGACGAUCAUGUGGGGCUGGUGGAGAUGCCUCCACCCCAGGAGCCUCUGCAUAUGUGGUUCGUGGCCUUCUUCUCACCCAUUGGGAAAACCAAACAGCCUCACACUCUGUCCCCAUCGUGGAAUUCUCGGGUGCCAA	0.315
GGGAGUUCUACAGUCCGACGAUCUGCCUGUACCUCCGUUGUAUCUAGGAAGUAACUAACUAGCCUUUGAUUUUACAGGCUCAUAGGUGGAAGGGACUUGCCUUGUUUCAGAUGAGACUUUGGAGUAUGGACUUUGGAAUUCUCGGGUGCCAA	0.663
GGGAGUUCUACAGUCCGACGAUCAACUGGAAACCUGUCUCUCUCUGUUUGUGGACAAAUGAGAGGUUUCAGAUGCAGUGAGGAGCACUGAGUCCUUUGCAAUGUUUUCAGCCAUAGACCUUUGGGUCUGCCUGUGGAAUUCUCGGGUGCCAA	0.454
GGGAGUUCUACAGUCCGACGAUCAAGAAUACCACACUUUAAUAUUAAAUAUUCAUAAGGUCUAGUAUCUUGAUAAUAAUGUAGAUGUUUUAAUAACAAUUUUUGUCCUUCUUAAAAUAAAAUGAAAGAAACUUUGGAAUUCUCGGGUGCCAA	1.25
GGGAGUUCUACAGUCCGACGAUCGGGAAGCCCUCAACUCAUCUCUGAACUUAGAAUCUCAUCCUUAGGGCUCAGAGAGUCCCAGCCCUAAGGGUGUGAACCUCACCUCCUGGGGCUUCCGAGCUACAGGGCUGUGGAAUUCUCGGGUGCCAA	0.651
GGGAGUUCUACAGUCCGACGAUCCAGAGGAUGUGGUCAUACAGGAUGGCUCCCAUGUGGGCCUAGAACCCAGGAUGCUUCACUCUUGACUCCAUGCUCUUCCUUUUAUACCAUGUGGCUGUGAAUACAUACUAUGGAAUUCUCGGGUGCCAA	0.757
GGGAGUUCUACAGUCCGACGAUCGCUUCAAGAUGGCACCAGCUCUUUGGGCCUAGGAUACUGCCGGGCCCCCCAAGGGGGUCCCCAGCAACCAGGCCUGGCCUCCUGGUGUCUGCGGUCACAGUGGCCCCUGGUGGAAUUCUCGGGUGCCAA	0.218
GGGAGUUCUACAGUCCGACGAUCUAACAGUGUAGGUAUUGGAACCCUUGUAGCCCUUUUGGGGGUCAAACAGGUAUAUGGAUUUAUCAAGGAGGGCAUUGGCUGCCCCUGGGGUAUUGCCACGCUGUUGUCUUUGGAAUUCUCGGGUGCCAA	0.373
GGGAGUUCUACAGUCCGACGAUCUCUGGCUAUGUGCUGAAGCCAGAAUUCCUGAGAGAUACCCAGAGUUCAUUCAAUCCUGAGAGGCCAAUUAGUCUUUAUAAGGCCCAGAUCCUUGUAGUCCAGGUGAUCAGUGGAAUUCUCGGGUGCCAA	0.497
